Measured values pooled from the literature.
Compare with care: the assays were run in different laboratories. Several values in a cell are separate wells, animals, samples, runs or records. ± gives the spread as reported.

| SMILES | target or system | test | test system | setting | scale | endpoint | result |
| --- | --- | --- | --- | --- | --- | --- | --- |
| Nc1ncc(-c2cc(-c3cnn(CC(F)(F)F)c3)ncc2F)nc1C(=O)NC1CNCC(F)C1 (stereo not shown) | SRPK2 | KINOMEscan |  | 1 µM | reference: DMSO control | remaining binding | 66% |
| CCOC(=O)/C=C1\S/C(=N\N=C\c2cccc3cc4ccccc4nc23)N(c2ccccc2)C1=O | PATU | cell proliferation, MTT |  | 48 h |  | IC50 | > 50000 nM |
| CCn1nc(Cl)c2c1-c1cnc(N)c(c1)O[C@H](C)c1cc(F)ccc1-c1nn(C)cc1C2 | Ba/F3 EML4-ALK variant 3 | cell viability |  |  |  | IC50 | 1.6 nM |
| O=S(=O)(N[C@H]1CCC[C@@H](N2c3ccccc3CCc3ccccc32)[C@@H]1O)c1ccc(OC(F)(F)F)cc1 | E98 | cell viability, CellTiter-Glo |  | 72 h |  | IC50 | 10000 nM |
| CC(C)OCCOCc1ccc(OCC(O)CN(N=O)C(C)C)cc1 (stereo not shown) | Salmonella typhimurium | Ames test | TA1537 | 1580 µg/plate, without metabolic activation | reference: solvent control | revertant fold increase | 0.9 fold |
| CCN(C(=O)c1cc(F)ccc1Oc1nncnc1N1CCC2(C1)CN([C@H](CCCN(C)CCOC)C(C)C)C2)C(C)C | MV4-11 (KMT2A-AF4, FLT3-ITD) | inhibitor, QuantiGene multiplex, item: FLT3 mRNA |  |  |  | IC50 | 53 ± 5 nM |
| CC1(C)CC(=O)C2=C(C1)Oc1ccc(Cl)cc1C2c1c(C(=O)O)[nH]c2ccccc12 (stereo not shown) | 3T3-L1 pre-adipocytes | cell viability, MTT |  | 72 h |  | IC50 | 32.6 ± 0.77 µg/mL |
| COc1cc2c(=O)oc3cc(OC(=O)c4ccc(Cl)cc4)ccc3c2c(OC)c1OC | HEK293-A GFP-LC3B | LC3B puncta formation |  | 22 h, with: chloroquine, torin1 |  | IC50 | > 20000 nM |
| COc1ccc2c(c1)Cc1c-2nc(N)c(C#N)c1-c1ccc(CO)o1 | HH | cell growth or viability, ATP luminescence |  |  |  | IC50 | 6100 nM |
| CC(C)(C)c1cnc(CSc2cnc(NC(=O)C3CCN(C(=O)CCCCCCN4Cc5cc6c(cc5C4)C(=O)N(C4CCC(=O)NC4=O)C6=O)CC3)s2)o1 (stereo not shown) | MES-SA | cell growth or viability, MTT |  |  |  | IC50 | 200 nM |
| O=C(O)C(CO)NCc1cc(Cl)c(OCc2cccc(-c3ccccc3)c2Br)cc1OCc1cccnc1 (stereo not shown) | MC-38 | cell growth or viability, MTT |  |  |  | IC50 | > 10000 nM |
| CCOc1cncc(-c2ccc(NC(=O)C3(c4ccnc(NS(=O)(=O)C5CC5)n4)CCOCC3)nc2)n1 | HuP-T3 | cell growth or viability, ATP luminescence |  | 72 h |  | IC50 | 103 nM |
| COc1ccc(C([O-])=CC(=O)c2ccc(C(C)(C)C)cc2)cc1.[Cl-].[Ru+2].c1ccc(-c2cccc(-c3ccccn3)n2)nc1 | DU-145 | cytotoxicity |  | dark |  | IC50 | 650 nM |
| Cc1ncsc1-c1ccc(C(C)NC(=O)C2CC(O)CN2C(=O)C(NC(=O)CCCCCCCCCCN2CCCC(Nc3ncc(Cl)c(Nc4ccccc4S(=O)(=O)C(C)C)n3)C2)C(C)(C)C)cc1 (stereo not shown) | 22Rv1 | RNA-seq, item: ZBED8 mRNA |  | concentration not given | reference: DMSO | log2 fold change | -2.46 |
| O=C(NC1(O)C(=O)c2ccccc2C1=O)c1cnn(-c2ccccc2)c1C(F)(F)F | HEK293-A GFP-LC3B | LC3B puncta formation |  | 22 h, with: chloroquine, torin1 |  | IC50 | > 20000 nM |
| O=C(NCc1cc(F)cc(F)c1)[C@@]1(O)CCN(c2ccc3[nH]ccc3c2)C1=O | Ovarian PDX-derived tumour cells | colony formation, soft agar clonogenic |  | 8-10 days |  | IC50 | 36 nM |
| C=C(NC(=O)c1csc(-c2nc3c(cc2O)-c2nc(cs2)C(=O)NC(C(C)O)C(=O)NC(=C(C)OC)c2nc(cs2)C(=O)NC2c4nc(cs4)C(=O)NC(COC(=O)c4c5c6c(cccc6n4O)COC(=O)C(OC4CC(C)(O)C(N(C)C)C(C)O4)C2OC5)c2nc-3cs2)n1)C(N)=O (stereo not shown) |  |  | Sprague-Dawley rat, female, plasma | intravenous infusion, 6 mg/kg, multiple doses, day 7 |  | half-life | 423 min |
| CNC(=O)C1CCCN(C(=O)C2CC3CCC2N3C(=O)[C@@H]2C[C@@H](O)CN2C(=O)NCc2cccc(Cl)c2F)C1 (mixture of isomers) | Cytochrome P450 2C19 (CYP2C19, Homo sapiens, UniProt P33261) | enzyme activity, inhibitor, time-dependent inhibition |  | 0.617 µM, preincubated with NADPH | reference: negative control | remaining activity | 103% |
| CC(C)c1ccc(N(C)c2ccc3c(c2)OCC[C@H]3CNc2cnccc2C(=O)O)cc1 | RL | cell growth, CellTiter-Glo |  | 7 days |  | IC50 | 2.99 nM |
| Cc1nn(-c2cccc(N)c2)c(=O)c2cnc(Nc3ccc(N4CCNCC4)cc3)nc12 | Testis-specific serine/threonine-protein kinase 2 (TSSK2, Homo sapiens, UniProt Q96PF2) | enzyme activity, inhibitor |  |  |  | IC50 | > 10000 nM |
| COC(=O)C1=C(C)Oc2ccc(Br)cc2C1C(C(C)=O)C(=O)OC (stereo not shown) | 3T3-L1 pre-adipocytes | cell viability, MTT |  | 72 h |  | IC50 | > 100 µg/mL |
| Cn1ncc(-c2ccc3c(=O)[nH]nc(CN)c3c2)c1-c1c(F)c(Cl)cc(OC2CC2)c1C#N | PK-1 MTAP deleted | cell viability |  | 240 h |  | IC50 | 7.1 nM |

| SMILES | target or system | test | test system | setting | scale | endpoint | result |
| --- | --- | --- | --- | --- | --- | --- | --- |
| CCOC(=O)/C=C1\S/C(=N\N=C\c2cccc3cc4ccccc4nc23)N(C)C1=O | PATU | cell proliferation, MTT |  | 48 h |  | IC50 | > 50000 nM |
| CNS(=O)(=O)Nc1nccc(Cc2c(C)c3ccc(Oc4ncccc4F)cc3oc2=O)c1F | HH | cell viability |  | 7 days |  | IC50 | > 1000 nM |
| C[n+]1cccc2cc(/C=N/NC(=O)c3cc(C(=O)N/N=C/c4ccc5c(ccc[n+]5C)c4)ncn3)ccc21 | myc22 MYC G4-DNA parallel | FRET melting |  | 1 µM, K1 buffer, DNA 0.2 µM |  | ΔTm | 3.2 ± 0.5 °C |
| O=C1C2CC3CC1CC(C(=O)N1CCN(c4ccc([N+](=O)[O-])c5ncccc45)CC1)(C3)C2 | Salmonella typhimurium | Ames test | TA100 | 0.02 µg/well, with S9 | reference: vehicle | revertant fold increase | 1 |
| COc1ccc(C(=O)Oc2ccc(NC(=O)Cc3nn(C)c(=O)c4ccccc34)cc2)cc1 | HEK293-A GFP-LC3B | LC3B puncta formation |  | 22 h, with: chloroquine, torin1 |  | IC50 | > 20000 nM |
| C=CC(=O)Nc1cccc(Cn2ncc3cnc(Nc4cnn(CCOC)c4)nc32)c1 | TSSK1B human | binding, KINOMEscan |  | 100 nM | lower = stronger binding | percent of control | 100% |
| C=CC(=O)N1CC2C(=O)N(CCN(C)C)c3c(c4cc(Cl)c(-c5c(O)cccc5F)nc4n(-c4c(C)ccnc4C(C)C)c3=O)N2CC1C (stereo not shown) | SK-LU-1 | cell growth or viability |  |  |  | IC50 | > 10000 nM |
| CN1CCCNC(=O)c2cccc(c2)C(=O)NCCCN(C)CCCNc2cccc3c2C(=O)c2cccc(c2C3=O)NCCC1 | SAS | RNA-Seq, item: PDS5B mRNA |  | 1 µM, 6 h | reference: untreated cells | log2 fold change | -1.87 |
| C#CCOc1ccc(C(=O)c2ccc(NC(=O)C(=O)NCCc3ccc(OC)cc3)cc2)cc1 | NCI-H2122 | cell growth or viability |  |  |  | IC50 | 23 nM |
| COc1cccc(N2C(=O)CS/C2=N\N=C\c2cccc3cc4ccccc4nc23)c1 | PATU | cell proliferation, MTT |  | 48 h |  | IC50 | > 50000 nM |
| C=CC(=O)Nc1ccc(F)c(-c2ncnc3[nH]cc(C(=O)OCC)c23)c1 | mouse CD4 T-cell blasts | item: STAT1 phosphorylation |  | JAK1/JAK2 dependent, with: IFN-gamma |  | IC50 | > 10000 nM |
| C=CC(=O)N1CCCC(n2c(=O)c3ncccc3n(Cc3ccc(Oc4ccccc4)cc3)c2=O)C1 (stereo not shown) | Granta-519 | cell growth or viability, MTT |  | 72 h |  | IC50 | 250 nM |
| COC1CN([C@H]2CC[C@H]([C@@]3(C)Oc4c(Cl)cc(C(=O)NCc5c(SC)cc(C)[nH]c5=O)c(C)c4O3)CC2)C1 |  | RNA-seq, item: PRXL2A mouse homolog | mouse, HT-1376 xenograft, whole blood | dose not given | reference: vehicle | log2 fold change | 2.56 |
| Cc1ccc([N+](=O)[O-])cc1S(=O)(=O)N(C)/N=C/c1cnc2ccc(Br)cn12 | UO-31 | MTS |  | NCI60 panel |  | IC50 | 115 nM |
| N#Cc1c(N)nc2c(c1-c1ccc(CO)o1)Cc1cc(O)ccc1-2 | HH | cell growth or viability, ATP luminescence |  |  |  | IC50 | 2400 nM |
| CCOC(=O)/C=C1\S/C(=N\N=C\c2cccc3cc4ccccc4nc23)N(CC(C)C)C1=O | PATU | cell proliferation, MTT |  | 48 h |  | IC50 | > 50000 nM |
| CC(C)CN(CC(=O)N1CCN(CC(OCc2ccc3ccccc3c2)c2ccc(Cl)cc2Cl)CC1)CC(C)C (stereo not shown) | MDA-MB-468 | cell growth or viability, MTT |  | 24 h |  | IC50 | 4680 nM |
| CC1(C)CC(=O)C2=C(C1)Oc1c(O)cccc1C2n1nnc2ccccc21 (stereo not shown) | 3T3-L1 pre-adipocytes | cell viability, MTT |  | 72 h |  | IC50 | 78.8 ± 1.43 µg/mL |
| COc1cc(-n2cc3cc(F)cc(C(N)=O)c3n2)cc(Cl)c1C1CC(O)(CCO)CC2CCCC21 (stereo not shown) | SNU1 | cell growth or viability, MTT |  | 72 h |  | IC50 | 230 nM |
| CC1(C)CC(=O)C(C2C3=C(CC(C)(C)CC3=O)Oc3ccccc32)=C(O)C1 (stereo not shown) | 3T3-L1 pre-adipocytes | cell viability, MTT |  | 72 h |  | IC50 | 42.8 ± 2.45 µg/mL |
| CC(C)C[C@H](NC(=O)[C@H](Cc1ccc(O)cc1)NC(=O)[C@@H](CCCNC(=N)N)NC(=O)[C@@H](CO)NC(=O)[C@H](Cc1ccccc1)NC(=O)[C@H](CC1CCCCC1)NC(=O)[C@H](CC(=O)O)NC(=O)CN1CCN(CC(=O)O)CCN(CC(=O)O)CCN(CC(=O)O)CC1)C(=O)N[C@@H](Cc1c[nH]c2ccccc12)C(=O)N[C@@H](CO)C(=O)O [copper-64 labelled] |  |  | human, liver | concentration not given, 24 h |  | activity concentration | 7480 Bq/mL and 6000 Bq/mL and 5590 Bq/mL and 9290 Bq/mL and 9970 Bq/mL and 7720 Bq/mL |

Excerpt of the above:
| SMILES | target or system | test | test system | setting | scale | endpoint | result |
| --- | --- | --- | --- | --- | --- | --- | --- |
| CC(C)c1ccc(N(C)c2ccc3c(c2)OCC[C@H]3CNc2cnccc2C(=O)O)cc1 | RL | cell growth, CellTiter-Glo |  | 7 days |  | IC50 | 2.99 nM |
| C#CCOc1ccc(C(=O)c2ccc(NC(=O)C(=O)NCCc3ccc(OC)cc3)cc2)cc1 | NCI-H2122 | cell growth or viability |  |  |  | IC50 | 23 nM |
| CC1(C)CC(=O)C2=C(C1)Oc1ccc(Cl)cc1C2c1c(C(=O)O)[nH]c2ccccc12 (stereo not shown) | 3T3-L1 pre-adipocytes | cell viability, MTT |  | 72 h |  | IC50 | 32.6 ± 0.77 µg/mL |
